Measured values gathered from unrelated publications.
Each line is one published result; not all experiments were run side by side. ± marks the error that the study gave. Values after ≈ are worked out from the molar mass of the structure shown.
Organism: Bacillus subtilis

CN[C@H](CC(C)C)C(=O)N[C@H]1C(=O)N[C@@H](CC(N)=O)C(=O)N[C@H]2C(=O)N[C@H]3C(=O)N[C@H](C(=O)N[C@H](C(=O)O)c4cc(O)cc(O)c4-c4cc3ccc4O)[C@H](O)c3ccc(c(Cl)c3)Oc3cc2cc(c3O[C@@H]2O[C@H](CO)[C@@H](O)[C@H](O)[C@H]2O[C@H]2C[C@](C)(NCc3ccc(C(=O)OCCCCCCN(Cc4ccccn4)Cc4ccccn4)cc3)[C@H](O)[C@H](C)O2)Oc2ccc(cc2Cl)[C@H]1O  regulation factor (protein synthesis, measured: SdhA; 168; concentration not given, 10 min, at peak effective concentration; relative to: untreated): 3.1 ± 0.9
COc1cc(NC(=O)CSc2nc3ccccc3c(=O)n2-c2ccc(S(N)(=O)=O)cc2)cc(OC)c1OC  inhibition zone (microbial growth, well diffusion; ATCC6633; 500 µg/mL, 24 h): 20 mm
CCOC(=O)c1cnc(N/N=C/c2c(-c3ccc(F)cc3)nc3ncccn23)s1  inhibition zone (microbial growth, well diffusion; ATCC6051; 100 µg/mL): 15 to 20 mm
CCN(CC)CCn1nc(C23CC4CC(CC(C4)C2)C3)n(C)c1=S  inhibition zone diameter (IFO 3007; 200 µg/disc, 24 h, 37 °C): 20 mm
CC(C)=CCC/C(C)=C/CNCCNC1C2CC3CC(C2)CC1(O)C3 (stereo not shown)  IC50 (microbial growth): 54 µM
CCOC(=O)c1cnc(N/N=C/c2c(-c3ccc(Cl)cc3)nc3ncccn23)s1  inhibition zone (microbial growth, well diffusion; ATCC6051; 100 µg/mL): 11 mm
CCN1CCN(Cn2nc(C34CC5CC(CC(C5)C3)C4)n(-c3ccccc3)c2=S)CC1  inhibition zone diameter (IFO 3007; 200 µg/disc, 24 h, 37 °C): 16 mm
O=C(NC(=S)Nc1nc(-c2ccccc2)cc(-c2ccc(Cl)cc2)n1)c1ccc(Cl)cc1  inhibition zone (concentration not given, 24 h, 37 °C): 8 mm
CCOC(=O)c1cnc(N/N=C/c2c(-c3ccc(C#N)cc3)nc3ncccn23)s1  inhibition zone (microbial growth, well diffusion; ATCC6051; 100 µg/mL): 15 to 20 mm
Cc1cc([N+](=O)[O-])ccc1NC(=O)CSc1nc2ccccc2c(=O)n1-c1ccc(S(N)(=O)=O)cc1  MBC (microbial killing; ATCC6633; 24 h): 0.62 µg/mL (≈ 1.18 µM)
CCOC(=O)C1=C(C)NC2=C(C(=O)CC(C)(C)C2)C1c1ccc(OCC(=O)NN=Cc2cccc([N+](=O)[O-])c2)cc1OCC(=O)NN=Cc1cccc([N+](=O)[O-])c1 (stereo not shown)  inhibition zone diameter (ATCC 6337; concentration not given, 24 h, 37 °C): 7.3 ± 0.3 mm
COc1ccccc1N1CCN(Cn2nc(C34CC5CC(CC(C5)C3)C4)n(-c3ccccc3)c2=S)CC1  inhibition zone diameter (IFO 3007; 200 µg/disc, 24 h, 37 °C): 21 mm
CCc1ccc(NC(=O)CSc2nc3ccccc3c(=O)n2-c2ccc(S(N)(=O)=O)cc2)cc1  inhibition zone (microbial growth, well diffusion; ATCC6633; 500 µg/mL, 24 h): 28 mm
CCOC(=O)c1cnc(N/N=C/c2c(-c3ccc(Br)cc3)nc3ncccn23)s1  inhibition zone (microbial growth, well diffusion; ATCC6051; 100 µg/mL): 10 mm
CCc1ccccc1NC(=O)CSc1nc2ccccc2c(=O)n1-c1ccc(S(N)(=O)=O)cc1  inhibition zone (microbial growth, well diffusion; ATCC6633; 500 µg/mL, 24 h): 22 mm
Fc1ccc(CSc2nnc(C34CC5CC(CC(C5)C3)C4)n2-c2ccccc2)cc1  inhibition zone diameter (IFO 3007; 200 µg/disc, 24 h, 37 °C): 16 mm
C=C(CO)C(=O)O[C@H]1CC(=C)[C@@H]2C[C@H](O)[C@](O)(CCl)[C@@H]2[C@H]2OC(=O)C(=C)C12 (stereo partly shown)  inhibition zone (concentration not given): 12 ± 1.6 mm
NS(=O)(=O)c1ccc(-n2c(S)nc3ccccc3c2=O)cc1  inhibition zone (microbial growth, well diffusion; ATCC6633; 500 µg/mL, 24 h): 16 mm
Cn1c(SCCN2CCCCC2)nnc1C12CC3CC(CC(C3)C1)C2  inhibition zone diameter (IFO 3007; 200 µg/disc, 24 h, 37 °C): 14 mm
COc1ccc(NC(=O)CSc2nc3ccccc3c(=O)n2-c2ccc(S(N)(=O)=O)cc2)cc1  inhibition zone (microbial growth, well diffusion; ATCC6633; 500 µg/mL, 24 h): 21 mm
S=c1n(CN2CCN(Cc3ccccc3)CC2)nc(C23CC4CC(CC(C4)C2)C3)n1-c1ccccc1  inhibition zone diameter (IFO 3007; 200 µg/disc, 24 h, 37 °C): 19 mm
CC[C@H](C)[C@@H]1NC(=O)[C@@H]([C@@H](C)O)NC(=O)CNC(=O)[C@H](CC(=O)O)NC(=O)CNC(=O)[C@H](CC(=O)O)NC(=O)CNC(=O)[C@H]2CCCCN2C(=O)[C@@H](NC(=O)[C@H](CC(=O)O)NC(=O)/C=C/CCCCCCCCCC(C)C)CNC(=O)[C@@H]2CCCN2C1=O  GFP-MinD localization (bacterial cytological profiling; GFP reporter strain; 12.5 µg/mL, 30 min, 30 °C, fluorescence microscopy, together with: CaCl2 2 mM): no effect
